Results from different studies.
A part holds a random share of what one study measured.

Series 1 — SMILES: O=C(Nc1ccccc1)Nc1cccc(Oc2ccc3nccn3n2)c1; tested at: 1 µM
target	technique	item	setting	relative to	remaining binding
PIM1 (Homo sapiens, UniProt P11309)	competitive binding panel	–	–	vehicle	100%
CAMK2D (Homo sapiens, UniProt Q13557)	competitive binding panel	–	–	vehicle	100%
MAP3K12 (Homo sapiens, UniProt Q12852)	competitive binding	–	DLK	–	100%
ITK (Homo sapiens, UniProt Q08881)	competitive binding panel	–	–	vehicle	98%
RPS6KA4 (Homo sapiens, UniProt O75676)	competitive binding scan	–	N-terminal kinase domain 1	–	57%
MAP2K4 (Homo sapiens, UniProt P45985)	competitive binding panel	MEK4	–	vehicle	100%
CDK2 (Homo sapiens, UniProt P24941)	competitive binding panel	–	–	vehicle	100%
PIK3C2B (Homo sapiens, UniProt O00750)	competitive binding panel	–	–	vehicle	100%
LATS1 (Homo sapiens, UniProt O95835)	competitive binding panel	–	–	vehicle	100%

Series 2 — effect on: enzyme activity; action: inhibitor; tested at: 10 µM
Target: Calcium/calmodulin-dependent protein kinase type II subunit alpha (CAMK2A, Homo sapiens, UniProt Q9UQM7)
Structure (SMILES)	inhibition [%]
O=C1NCC2(CCN(CCc3ccccc3)CC2)O1	-3
C=C1[C@H]2CC[C@@H]3[C@H]2C(C)(C)CCC[C@]13C	-29
C=C(C)[C@@H]1CC[C@]2(C)[C@H](CC=C3[C@@H]4[C@@H](C)[C@H](C)CC[C@]4(C)CC[C@]32C)[C@@]1(C)CCC(=O)O	-26
O[C@H]1[C@H](O)[C@@H](O)[C@H](O)[C@@H](O)[C@@H]1O	52
CCCCC/C=C/C=C/C=O	2
Oc1cccc2ccccc12	-28
CC(=O)O[C@]1(C(C)=O)CC[C@H]2[C@@H]3C=C(C)C4=CC(=O)CC[C@@H]4[C@H]3CC[C@@]21C	-2
CC(=O)[C@]1(O)Cc2c(O)c3c(c(O)c2[C@@H](O[C@H]2C[C@H](N)[C@H](O)[C@H](C)O2)C1)C(=O)c1c(O)cccc1C3=O	31
CC1=CC(=O)C(C(C)C)=CC1=O	19

Series 3 — effect on: enzyme activity; action: inhibitor; tested at: 0.5 µM; relative to: control
Target: Tyrosine-protein kinase JAK2 (JAK2, Homo sapiens, UniProt O60674)
Compound	remaining activity [%]
Cc1nc(-c2ccccc2)c(-c2ccncc2)o1	98.4
COc1ccc(OC)c2c(=S)c3ccccc3[nH]c12	96
Cn1c2ccccc2c2c3c(c4c5ccccc5n(CCC#N)c4c21)CNC3=O	5.58
COc1cc2nccc(Oc3ccc(NC(=S)NC(=O)c4ccccc4C)cc3)c2cc1OC	97.7
O=C1NC(=O)C(c2cn(CCCO)c3ncccc23)=C1c1cnccn1	97.8
Cc1ccc(Nc2nccc(N(C)c3ccc4c(C)n(C)nc4c3)n2)cc1S(N)(=O)=O	101
CC(C)[C@H](CO)Nc1nc(Nc2cc(N)cc(Cl)c2)c2ncn(C(C)C)c2n1	100
COc1ccc(C(=O)Nc2sc3c(c2C(N)=O)CCCC3)cc1OC	99.9
Cn1sc(=O)n(Cc2ccccc2)c1=O	91.6
O=C(O)c1ccc2c3c1cccc3c(=O)n1c3ccccc3nc21	86.7
CN(C)c1ccc(C=C2C(=O)Nc3ccccc32)cc1	94.8
O=C1NC(=O)C(c2cn(CCCn3ccnc3)c3ccccc23)=C1Nc1ccccc1	84.3
OCC(O)CCON=C1C(c2c(O)[nH]c3ccccc23)=Nc2ccccc21 (centres unmarked)	43.1
COc1cc2ncnc(Nc3ccc(F)c(Cl)c3)c2cc1OCCCN1CCOCC1	99.8
CCOC(=O)c1c(C)[nH]c(/C=C2\C(=O)Nc3ccccc32)c1C	96.7

Series 4 — effect on: AlphaScreen signal; technique: AlphaScreen counter screen; medium: His6 peptide without bromodomain; tested at: 50 µM; setting: assay interference check
Structure (SMILES)	inhibition [%]
CN1CCN(Cc2c(-c3ccc(F)cc3)[nH]c3ncccc23)CC1	-2.1
O=C(O)COc1ccccc1C=NNC(=O)c1cc(-c2ccc3c4c(cccc24)CC3)n[nH]1	16.8
Nc1nc(Nc2ccc(F)cc2)sc1C(=O)c1ccc(Cl)cc1	69.2
Nc1nc(NCc2ccc(F)cc2)c2nc[nH]c2n1	17.8
COc1ccc(NC(=S)Nc2ccc3nc[nH]c(=O)c3c2)cc1	3.8
CCCOc1ccc(C=C2SC(=O)N(CCN)C2=O)cc1	26.5
CCOC(=O)CSc1ccc2nnc(-c3ccc(OC)c(OC)c3)n2n1	24.6
CC(C)[C@H](CO)Nc1nc(Nc2cc(N)cc(Cl)c2)c2ncn(C(C)C)c2n1	65.8

Excerpt of the above (series 1):
target	technique	item	setting	relative to	remaining binding
MAP3K12 (Homo sapiens, UniProt Q12852)	competitive binding	–	DLK	–	100%
ITK (Homo sapiens, UniProt Q08881)	competitive binding panel	–	–	vehicle	98%
RPS6KA4 (Homo sapiens, UniProt O75676)	competitive binding scan	–	N-terminal kinase domain 1	–	57%
MAP2K4 (Homo sapiens, UniProt P45985)	competitive binding panel	MEK4	–	vehicle	100%
